Measurements of several laboratories.
± gives the spread as reported.
PTPN1: Tyrosine-protein phosphatase non-receptor type 1 (PTPN1, Homo sapiens, UniProt P18031)
HLA class I histocompatibility antigen, A alpha chain allele A*80:01: HLA class I histocompatibility antigen, A alpha chain, allele A*80:01 (Homo sapiens, UniProt P04439)
FURIN: Furin (FURIN, Homo sapiens, UniProt P09958)
MCA2: Metacaspase-2 (MCA2, Trypanosoma brucei brucei, UniProt Q585F3)

The chains behind the UniProt entries cited, without tags or fusion partners. Residues count along the entry.
UniProt P18031, 1-321 limits assumed: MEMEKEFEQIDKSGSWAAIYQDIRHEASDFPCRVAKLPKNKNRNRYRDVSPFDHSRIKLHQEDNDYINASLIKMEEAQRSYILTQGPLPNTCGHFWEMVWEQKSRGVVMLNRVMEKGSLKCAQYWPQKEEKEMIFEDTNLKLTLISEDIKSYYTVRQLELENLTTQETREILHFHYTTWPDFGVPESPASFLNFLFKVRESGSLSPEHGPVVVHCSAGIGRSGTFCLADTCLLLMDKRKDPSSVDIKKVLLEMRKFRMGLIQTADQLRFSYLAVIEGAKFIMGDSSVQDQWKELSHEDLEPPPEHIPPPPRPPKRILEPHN
UniProt P09958, whole entry, looked up: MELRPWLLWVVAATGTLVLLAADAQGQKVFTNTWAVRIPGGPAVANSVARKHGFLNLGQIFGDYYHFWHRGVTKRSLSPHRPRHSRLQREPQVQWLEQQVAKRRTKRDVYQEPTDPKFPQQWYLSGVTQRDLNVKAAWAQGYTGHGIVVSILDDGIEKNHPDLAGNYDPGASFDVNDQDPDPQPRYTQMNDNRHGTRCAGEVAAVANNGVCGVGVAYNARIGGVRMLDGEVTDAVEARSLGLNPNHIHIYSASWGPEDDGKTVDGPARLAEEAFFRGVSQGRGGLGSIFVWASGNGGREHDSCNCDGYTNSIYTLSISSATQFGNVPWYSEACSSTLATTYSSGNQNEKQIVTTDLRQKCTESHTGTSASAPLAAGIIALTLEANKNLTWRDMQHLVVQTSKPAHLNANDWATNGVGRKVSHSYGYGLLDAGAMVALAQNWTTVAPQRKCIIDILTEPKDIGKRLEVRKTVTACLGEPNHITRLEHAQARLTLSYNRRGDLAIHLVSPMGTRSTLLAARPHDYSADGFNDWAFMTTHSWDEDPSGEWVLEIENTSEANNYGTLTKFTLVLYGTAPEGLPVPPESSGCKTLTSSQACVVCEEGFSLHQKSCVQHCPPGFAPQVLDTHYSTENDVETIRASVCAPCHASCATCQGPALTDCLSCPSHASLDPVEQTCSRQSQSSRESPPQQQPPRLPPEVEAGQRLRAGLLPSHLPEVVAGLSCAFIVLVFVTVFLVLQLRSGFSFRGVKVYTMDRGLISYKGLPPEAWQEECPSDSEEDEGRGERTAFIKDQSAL
UniProt Q585F3, whole entry, looked up: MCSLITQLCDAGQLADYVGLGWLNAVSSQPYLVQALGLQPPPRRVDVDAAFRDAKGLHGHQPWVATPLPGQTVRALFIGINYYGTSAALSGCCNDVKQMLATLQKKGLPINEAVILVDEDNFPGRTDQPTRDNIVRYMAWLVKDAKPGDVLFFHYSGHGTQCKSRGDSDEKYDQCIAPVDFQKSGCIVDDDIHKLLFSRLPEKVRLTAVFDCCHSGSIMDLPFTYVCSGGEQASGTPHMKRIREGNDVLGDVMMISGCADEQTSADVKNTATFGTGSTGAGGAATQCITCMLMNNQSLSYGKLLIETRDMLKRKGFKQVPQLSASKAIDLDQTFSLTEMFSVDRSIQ
UniProt P55210, whole entry, looked up: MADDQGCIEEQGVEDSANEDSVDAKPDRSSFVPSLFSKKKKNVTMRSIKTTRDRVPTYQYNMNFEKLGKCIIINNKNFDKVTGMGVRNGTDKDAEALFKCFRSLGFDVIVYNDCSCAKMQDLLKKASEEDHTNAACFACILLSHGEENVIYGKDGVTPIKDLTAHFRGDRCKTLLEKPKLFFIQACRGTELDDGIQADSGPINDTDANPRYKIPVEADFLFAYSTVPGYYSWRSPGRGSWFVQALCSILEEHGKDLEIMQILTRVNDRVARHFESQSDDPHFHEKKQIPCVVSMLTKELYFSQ
UniProt Q66478, 863-1012 limits assumed: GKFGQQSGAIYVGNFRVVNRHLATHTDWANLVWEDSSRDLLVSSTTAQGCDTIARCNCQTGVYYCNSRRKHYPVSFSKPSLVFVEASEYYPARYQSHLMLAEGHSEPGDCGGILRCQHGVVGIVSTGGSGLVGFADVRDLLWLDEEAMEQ
UniProt P42574, whole entry, looked up: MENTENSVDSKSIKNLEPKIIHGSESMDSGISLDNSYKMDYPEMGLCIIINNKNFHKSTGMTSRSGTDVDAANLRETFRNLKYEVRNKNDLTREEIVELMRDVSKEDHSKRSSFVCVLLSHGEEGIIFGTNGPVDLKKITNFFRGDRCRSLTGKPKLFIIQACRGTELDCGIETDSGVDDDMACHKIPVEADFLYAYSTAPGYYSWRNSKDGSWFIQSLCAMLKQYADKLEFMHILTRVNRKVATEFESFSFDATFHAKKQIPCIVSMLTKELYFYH
UniProt Q08210, whole entry C276Y, looked up: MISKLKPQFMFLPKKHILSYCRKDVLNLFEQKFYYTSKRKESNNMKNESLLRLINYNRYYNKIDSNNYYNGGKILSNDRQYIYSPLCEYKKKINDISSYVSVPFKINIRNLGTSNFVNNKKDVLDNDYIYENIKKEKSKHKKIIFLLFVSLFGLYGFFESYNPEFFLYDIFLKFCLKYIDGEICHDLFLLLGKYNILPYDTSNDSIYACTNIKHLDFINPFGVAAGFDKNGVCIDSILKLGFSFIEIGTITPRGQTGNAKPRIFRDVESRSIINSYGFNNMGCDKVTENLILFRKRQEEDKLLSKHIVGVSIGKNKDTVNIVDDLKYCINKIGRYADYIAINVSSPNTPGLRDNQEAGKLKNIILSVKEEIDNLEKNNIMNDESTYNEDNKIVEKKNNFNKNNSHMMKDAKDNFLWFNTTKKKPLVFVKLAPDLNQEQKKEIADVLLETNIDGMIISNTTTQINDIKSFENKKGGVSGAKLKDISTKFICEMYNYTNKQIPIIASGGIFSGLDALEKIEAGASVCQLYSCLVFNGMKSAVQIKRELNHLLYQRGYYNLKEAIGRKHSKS
UniProt Q9GZZ6, 25-450 limits assumed: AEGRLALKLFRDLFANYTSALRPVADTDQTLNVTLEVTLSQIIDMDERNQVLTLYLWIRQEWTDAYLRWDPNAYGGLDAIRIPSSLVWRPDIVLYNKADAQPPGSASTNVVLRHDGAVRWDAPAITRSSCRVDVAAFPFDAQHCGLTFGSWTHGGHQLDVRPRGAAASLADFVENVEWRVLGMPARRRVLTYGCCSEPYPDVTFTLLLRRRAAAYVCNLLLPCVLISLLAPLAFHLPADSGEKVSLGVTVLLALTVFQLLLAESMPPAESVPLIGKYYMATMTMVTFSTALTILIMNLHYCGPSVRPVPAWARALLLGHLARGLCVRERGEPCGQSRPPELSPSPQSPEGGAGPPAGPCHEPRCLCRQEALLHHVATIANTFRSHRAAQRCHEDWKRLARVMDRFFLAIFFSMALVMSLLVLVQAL
UniProt Q9UGM1, 26-479 limits assumed: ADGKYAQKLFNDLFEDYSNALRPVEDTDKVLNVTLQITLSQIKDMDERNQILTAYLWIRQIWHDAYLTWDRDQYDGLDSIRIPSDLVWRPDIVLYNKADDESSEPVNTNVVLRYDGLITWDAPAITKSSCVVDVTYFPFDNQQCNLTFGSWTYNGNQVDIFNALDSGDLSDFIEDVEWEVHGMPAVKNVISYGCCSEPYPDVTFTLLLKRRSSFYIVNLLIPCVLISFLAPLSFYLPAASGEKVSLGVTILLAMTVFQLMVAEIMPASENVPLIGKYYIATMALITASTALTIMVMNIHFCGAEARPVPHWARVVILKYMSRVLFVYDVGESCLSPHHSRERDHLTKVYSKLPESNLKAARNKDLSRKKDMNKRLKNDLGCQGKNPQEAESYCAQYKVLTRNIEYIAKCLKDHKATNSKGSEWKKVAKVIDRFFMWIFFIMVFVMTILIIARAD

`CC(=O)N[C@@H](C)C(=O)N[C@H](C(=O)N[C@@H](C)C(=O)N[C@@H](CC(=O)O)C(=O)N[C@H](C(=O)N[C@@H](Cc1ccc(OP(=O)(O)O)cc1)C(=O)N[C@@H](C)C(=O)N[C@@H](C)C(N)=O)C(C)C)[C@@H](C)O` has a kcat/Km of 2.5e+06 M⁻¹ s⁻¹ (PTPN1; substrate, continuous UV; pH 7.4).
`CC(C)[C@H](NC(=O)CNC(=O)[C@H](COP(=O)(O)O)NC(=O)[C@@H](NC(=O)[C@H](CCC(=O)O)NC(=O)[C@H](CC(=O)O)NC(=O)CCNC(=O)Cc1cc(=O)oc2cc(N)ccc12)C(C)C)C(=O)N[C@@H](CCCCNc1ccc([N+](=O)[O-])cc1[N+](=O)[O-])C(=O)N[C@@H](CC(=O)O)C(N)=O` gave a kcat/Km ratio of 2.3 fold (Caspase-7 (CASP7, Homo sapiens, UniProt P55210); substrate; reference: caspase-3 over caspase-7).
For `CC(C)[C@H](NC(=O)[C@H](C)NC(=O)[C@H](C)NC(=O)[C@@H](N)Cc1c[nH]cn1)C(=O)N[C@@H](CCCNC(=N)N)C(=O)N[C@@H](CCCNC(=N)N)C(=O)N[C@@H](CC(N)=O)C(=O)N[C@@H](C)C(=O)N[C@@H](Cc1ccccc1)C(=O)O`, the z-score was 0.38 (HLA class I histocompatibility antigen, A alpha chain allele A*80:01; direction not given).
With `CCOC(=O)c1c(-c2ccc(Cl)cc2Cl)n(-c2nc(-c3ccc(Cl)cc3)c3c(NC(=O)c4ccccc4)nnc-3[nH]2)[nH]c1=O` the CC50 was 6.9 µM (TK-10; SRB).
For `CC(C)C[C@H](NC(=O)[C@H](C)NC(=O)[C@H](CCCNC(=N)N)NC(=O)[C@H](CCCCN)NC(=O)[C@H](CCCCN)NC(=O)[C@H](CCCNC(=N)N)NC(=O)[C@H](CCCNC(=N)N)NC(=O)[C@H](CC(N)=O)NC(=O)c1ccccc1N)C(=O)N[C@@H](CC(=O)O)C(=O)N[C@@H](C)C(=O)N[C@@H](CCC(N)=O)C(=O)NCCNc1ccc([N+](=O)[O-])cc1[N+](=O)[O-]`, the kcat was 1.5 s⁻¹ (FURIN; substrate; pH 7).
`COP(=O)(OC)Oc1ccc([N+](=O)[O-])cc1Cl` gave an IC50 of 0.066 µM (carboxylesterase (rat); enzyme activity, inhibitor; rat, postnatal day 70, rat liver homogenate; added: p-nitrophenyl valerate).
With `CC[C@H](C)[C@H](NC(=O)[C@H](CCCCN)NC(=O)[C@H](CC(=O)O)NC(=O)[C@H](CCCNC(=N)N)NC(=O)c1ccc(N=Nc2ccc(N(C)C)cc2)cc1)C(=O)N[C@H](C(=O)N[C@H](C(=O)N[C@@H](CC(C)C)C(=O)NCC(=O)N[C@@H](CCCCN)C(=O)N[C@@H](Cc1ccccc1)C(=O)NCC(=O)N[C@@H](CCC(N)=O)C(=O)N[C@@H](CC(=O)O)C(=O)N[C@@H](CCC(=O)NCCNc1cccc2c(S(=O)(=O)O)cccc12)C(N)=O)[C@@H](C)O)[C@@H](C)O` the Km was 21.3 ± 2.4 µM (Genome polyprotein, 2A protease (Enterovirus A71, UniProt Q66478); protease activity, substrate, FRET; enterovirus 71; pH 7.4, 30 °C).
The z-score of `CC(C)[C@H](NC(=O)[C@H](CS)NC(=O)[C@@H](NC(=O)[C@@H](NC(=O)[C@@H](N)CCCCN)[C@@H](C)O)C(C)C)C(=O)N[C@@H](CCC(N)=O)C(=O)N[C@@H](C)C(=O)N[C@H](C(=O)N[C@@H](CCCCN)C(=O)O)[C@@H](C)O` is reported as 0.38 (HLA class I histocompatibility antigen, A alpha chain allele A*80:01; direction not given).
With `CC(C)C[C@H](NC(=O)[C@@H](NC(=O)[C@H](Cc1ccccc1)NC(=O)[C@H](CCCNC(=N)N)NC(=O)[C@H](CCCCN)NC(=O)[C@H](CCC(N)=O)NC(=O)[C@H](CCCNC(=N)N)NC(=O)[C@H](Cc1c[nH]cn1)NC(=O)[C@H](CCCNC(=N)N)NC(=O)c1ccccc1N)C(C)C)C(=O)N[C@@H](CO)C(=O)N[C@@H](CCC(N)=O)C(=O)NCCNc1ccc([N+](=O)[O-])cc1[N+](=O)[O-]` the kcat was 1.3 s⁻¹ (FURIN; substrate; pH 7).
With `C[C@H](NC(=O)[C@H](CCCNC(=N)N)NC(=O)c1ccccc1N)C(=O)N[C@@H](CCCNC(=N)N)C(=O)N[C@@H](CO)C(=O)N[C@@H](CO)C(=O)N[C@@H](C)C(=O)N[C@@H](CCC(N)=O)C(=O)NCCNc1ccc([N+](=O)[O-])cc1[N+](=O)[O-]` the Km was 0.37 µM (MCA2; enzyme activity, substrate, FRET hydrolysis; Trypanosoma brucei; pH 7.4).
`CC(C)[C@H](NC(=O)[C@H](CO)NC(=O)[C@H](CC(=O)O)NC(=O)[C@H](CCC(N)=O)NC(=O)CCNC(=O)Cc1cc(=O)oc2cc(N)ccc12)C(=O)N[C@@H](CC(=O)O)C(=O)N[C@@H](Cc1ccccc1)C(=O)N[C@@H](COP(=O)(O)O)C(=O)N[C@@H](CC(N)=O)C(=O)N[C@@H](Cc1c[nH]cn1)C(=O)N[C@@H](CC(=O)O)C(=O)N[C@@H](CCCCNc1ccc([N+](=O)[O-])cc1[N+](=O)[O-])C(N)=O` gave a kcat/Km decrease of ~58 (Caspase-3 (CASP3, Homo sapiens, UniProt P42574); substrate; unit not given; reference: unphosphorylated substrate over phosphorylated).
`CC(C)[C@H](NC(=O)[C@H](Cc1c[nH]cn1)NC(=O)c1ccccc1N)C(=O)N[C@@H](CCCNC(=N)N)C(=O)N[C@@H](CCCCN)C(=O)N[C@@H](CCCNC(=N)N)C(=O)N[C@@H](CCCNC(=N)N)C(=O)N[C@@H](C)C(=O)N[C@@H](CC(=O)O)C(=O)N1CCC[C@H]1C(=O)N[C@@H](CC(=O)O)C(=O)N[C@@H](CCC(N)=O)C(=O)NCCNc1ccc([N+](=O)[O-])cc1[N+](=O)[O-]` gave a Km of 9.1 µM (FURIN; substrate; pH 7).
`CC(C)[C@H](NC(=O)[C@@H]1CCCN1C(=O)[C@@H]1CCCN1C(=O)[C@H](Cc1ccccc1)NC(=O)[C@@H](NC(=O)[C@@H](NC(=O)[C@H](C)NC(=O)[C@H](C)NC(=O)[C@@H](N)CC(=O)O)C(C)C)C(C)C)C(=O)O` gave a z-score of -4.33 (HLA class I histocompatibility antigen, A alpha chain, allele A*69:01 (Homo sapiens, UniProt P04439); direction not given).
With `CC(C)[C@H](NC(=O)[C@H](CO)NC(=O)[C@H](CO)NC(=O)[C@H](CCCNC(=N)N)NC(=O)[C@H](C)NC(=O)[C@H](CCCCN)NC(=O)c1ccccc1N)C(=O)N[C@@H](CCC(N)=O)C(=O)NCCNc1ccc([N+](=O)[O-])cc1[N+](=O)[O-]` the Km was 1 µM (MCA2; enzyme activity, substrate, FRET hydrolysis; Trypanosoma brucei; pH 7.4).
`CC(C)C[C@H](NC(=O)[C@H](C)NC(=O)[C@H](Cc1ccc(O)cc1)NC(=O)[C@H](CCCNC(=N)N)NC(=O)[C@H](CCCCN)NC(=O)[C@H](CCCNC(=N)N)NC(=O)[C@H](CCCNC(=N)N)NC(=O)[C@@H](NC(=O)[C@H](CC(N)=O)NC(=O)c1ccccc1N)C(C)C)C(=O)N[C@H](C(=O)N[C@@H](CCC(N)=O)C(=O)NCCNc1ccc([N+](=O)[O-])cc1[N+](=O)[O-])[C@@H](C)O` gave a kcat of 2.4 s⁻¹ (FURIN; substrate; pH 7).
The z-score of `CC[C@H](C)[C@H](NC(=O)[C@H](Cc1ccc(O)cc1)NC(=O)[C@H](CCC(=O)O)NC(=O)[C@@H](NC(=O)[C@H](CCC(N)=O)NC(=O)[C@H](Cc1ccc(O)cc1)NC(=O)[C@H](CS)NC(=O)[C@@H](NC(=O)[C@@H](N)CC(C)C)[C@@H](C)CC)[C@@H](C)CC)C(=O)O` is reported as 0.38 (HLA class I histocompatibility antigen, A alpha chain allele A*80:01; direction not given).
For `CC(=O)N[C@@H](C)C(=O)N[C@@H](Cc1c[nH]c2ccccc12)C(=O)N[C@@H](CO)C(=O)N[C@@H](Cc1ccc(OP(=O)(O)O)cc1)C(=O)N[C@@H](C)C(=O)N[C@@H](CC(=O)O)C(=O)N[C@@H](Cc1ccc(OP(=O)(O)O)cc1)C(=O)N[C@@H](C)C(=O)N[C@@H](C)C(N)=O`, the kcat/Km was 580000 M⁻¹ s⁻¹ (SHP-1 catalytic domain (ΔSH2); phosphatase activity, substrate; pH 7.4).
`CC(C)C[C@H](NC(=O)[C@H](Cc1ccccc1)NC(=O)CNC(=O)CNC(=O)[C@@H](N)Cc1ccc(O)cc1)C(=O)O` gave a Km of 82 µM (aminopeptidase III peak, rat; substrate; added: NAP-2).
For `CC(=O)N[C@@H](C)C(=O)N[C@H](C(=O)N[C@@H](Cc1ccc(OP(=O)(O)O)cc1)C(=O)N[C@@H](C)C(=O)N[C@@H](CC(=O)O)C(=O)N[C@@H](Cc1c[nH]cn1)C(=O)N[C@@H](Cc1ccc(OP(=O)(O)O)cc1)C(=O)N[C@@H](C)C(=O)N[C@@H](C)C(N)=O)C(C)C`, the kcat/Km was 7.8e+06 M⁻¹ s⁻¹ (PTPN1; substrate, continuous UV; pH 7.4).
`CC[C@H](C)[C@H](NC(=O)[C@H](CCC(N)=O)NC(=O)[C@H](CCCCN)NC(=O)[C@H](CCCCN)NC(=O)[C@H](CCCNC(=N)N)NC(=O)[C@H](CC(C)C)NC(=O)[C@@H](N)CCSC)C(=O)N[C@H](C(=O)N[C@H](C(=O)O)C(C)C)[C@@H](C)O` gave a z-score of 0.38 (HLA class I histocompatibility antigen, A alpha chain allele A*80:01; direction not given).
`Cc1cc(Nc2ccc(S(F)(F)(F)(F)F)cc2)n2nc(C(C)(F)F)nc2n1` — result for “IC50 fold increase”: 10 to 20 fold (PFF0160c (Plasmodium falciparum, UniProt Q08210, C276Y); enzyme activity, inhibitor, measured: C276Y mutant; reference: mutant over wild type).
With `C[C@H](NC(=O)[C@H](CCCCN)NC(=O)c1ccccc1N)C(=O)N[C@@H](CCCCN)C(=O)N[C@@H](CO)C(=O)N[C@@H](CO)C(=O)N[C@@H](C)C(=O)N[C@@H](CCC(N)=O)C(=O)NCCNc1ccc([N+](=O)[O-])cc1[N+](=O)[O-]` the Km was 0.49 µM (MCA2; enzyme activity, substrate, FRET hydrolysis; Trypanosoma brucei; pH 7.4).
`CC[C@H](C)[C@H](NC(=O)[C@H](CCCNC(=N)N)NC(=O)[C@H](CCCCN)NC(=O)[C@H](CCCNC(=N)N)NC(=O)[C@H](C)NC(C)=O)C(=O)N[C@@H](Cc1ccc(OP(=O)(O)O)cc1)C(=O)N[C@@H](C)C(=O)N[C@@H](C)C(N)=O` has a kcat of 41 ± 1 s⁻¹ (PTPN1; substrate; pH 7.4, catalytic domain).
`N#Cc1c(-c2ccc(Cl)cc2Cl)n(-c2nc(-c3ccc(Cl)cc3)c3c(NC(=O)c4ccccc4)nnc-3[nH]2)[nH]c1=O` gave a CC50 of > 100 µM (UO-31; SRB).
For `CC[C@H](C)[C@@H]1NC(=O)[C@H](CCC(=O)O)NC(=O)[C@@H]2CCCN2C(=O)[C@H](Cc2c[nH]cn2)NC(=O)[C@H](CCCNC(=N)N)NC(=O)[C@H](C(C)C)NC(=O)[C@H](CC(N)=O)NC(=O)[C@@H]2CSSC[C@H](NC(=O)CN)C(=O)N[C@@H](CSSC[C@@H](C(N)=O)NC1=O)C(=O)N[C@@H](CO)C(=O)N[C@@H](Cc1c[nH]cn1)C(=O)N1CCC[C@H]1C(=O)N[C@@H](C(C)C)C(=O)N2`, the IC50 was > 10 µM (Neuronal acetylcholine receptor; alpha9/alpha10 (Homo sapiens, UniProt Q9GZZ6+Q9UGM1); ion current, antagonist, two-electrode voltage clamp; Xenopus oocytes; human, added: ACh 100 µM).

For quick reference, copied from above:
With `CC(C)[C@H](NC(=O)[C@H](CO)NC(=O)[C@H](CO)NC(=O)[C@H](CCCNC(=N)N)NC(=O)[C@H](C)NC(=O)[C@H](CCCCN)NC(=O)c1ccccc1N)C(=O)N[C@@H](CCC(N)=O)C(=O)NCCNc1ccc([N+](=O)[O-])cc1[N+](=O)[O-]` the Km was 1 µM (MCA2; enzyme activity, substrate, FRET hydrolysis; Trypanosoma brucei; pH 7.4).
`CC(C)[C@H](NC(=O)[C@@H]1CCCN1C(=O)[C@@H]1CCCN1C(=O)[C@H](Cc1ccccc1)NC(=O)[C@@H](NC(=O)[C@@H](NC(=O)[C@H](C)NC(=O)[C@H](C)NC(=O)[C@@H](N)CC(=O)O)C(C)C)C(C)C)C(=O)O` gave a z-score of -4.33 (HLA class I histocompatibility antigen, A alpha chain, allele A*69:01 (Homo sapiens, UniProt P04439); direction not given).
For `CC(=O)N[C@@H](C)C(=O)N[C@@H](Cc1c[nH]c2ccccc12)C(=O)N[C@@H](CO)C(=O)N[C@@H](Cc1ccc(OP(=O)(O)O)cc1)C(=O)N[C@@H](C)C(=O)N[C@@H](CC(=O)O)C(=O)N[C@@H](Cc1ccc(OP(=O)(O)O)cc1)C(=O)N[C@@H](C)C(=O)N[C@@H](C)C(N)=O`, the kcat/Km was 580000 M⁻¹ s⁻¹ (SHP-1 catalytic domain (ΔSH2); phosphatase activity, substrate; pH 7.4).
With `C[C@H](NC(=O)[C@H](CCCCN)NC(=O)c1ccccc1N)C(=O)N[C@@H](CCCCN)C(=O)N[C@@H](CO)C(=O)N[C@@H](CO)C(=O)N[C@@H](C)C(=O)N[C@@H](CCC(N)=O)C(=O)NCCNc1ccc([N+](=O)[O-])cc1[N+](=O)[O-]` the Km was 0.49 µM (MCA2; enzyme activity, substrate, FRET hydrolysis; Trypanosoma brucei; pH 7.4).
